Measured values of several laboratories.
Compare with care: the assays were run in different laboratories.
T1: itself; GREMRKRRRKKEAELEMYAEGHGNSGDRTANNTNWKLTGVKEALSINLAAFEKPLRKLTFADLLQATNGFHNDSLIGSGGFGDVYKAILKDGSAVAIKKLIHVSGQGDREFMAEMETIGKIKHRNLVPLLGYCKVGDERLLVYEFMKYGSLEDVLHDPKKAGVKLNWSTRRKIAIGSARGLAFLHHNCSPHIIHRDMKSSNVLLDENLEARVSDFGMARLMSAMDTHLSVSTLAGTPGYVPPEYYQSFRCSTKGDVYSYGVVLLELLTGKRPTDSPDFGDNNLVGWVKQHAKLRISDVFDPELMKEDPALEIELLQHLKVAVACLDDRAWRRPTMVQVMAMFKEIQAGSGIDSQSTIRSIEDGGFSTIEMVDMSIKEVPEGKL
T2: itself; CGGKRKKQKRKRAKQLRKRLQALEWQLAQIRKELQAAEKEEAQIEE
T3: itself; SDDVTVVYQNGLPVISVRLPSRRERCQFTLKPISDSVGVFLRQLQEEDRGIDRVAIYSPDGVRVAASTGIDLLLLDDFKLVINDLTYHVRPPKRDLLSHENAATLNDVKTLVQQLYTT
T4: itself; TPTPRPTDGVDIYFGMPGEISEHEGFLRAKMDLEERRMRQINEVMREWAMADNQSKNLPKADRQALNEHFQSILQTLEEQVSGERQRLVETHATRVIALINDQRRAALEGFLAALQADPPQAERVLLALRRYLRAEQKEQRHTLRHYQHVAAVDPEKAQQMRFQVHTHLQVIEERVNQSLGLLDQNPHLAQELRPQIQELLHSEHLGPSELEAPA
T5: itself; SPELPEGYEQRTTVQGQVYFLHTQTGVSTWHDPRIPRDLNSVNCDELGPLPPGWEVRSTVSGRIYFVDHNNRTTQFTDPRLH
T6: itself; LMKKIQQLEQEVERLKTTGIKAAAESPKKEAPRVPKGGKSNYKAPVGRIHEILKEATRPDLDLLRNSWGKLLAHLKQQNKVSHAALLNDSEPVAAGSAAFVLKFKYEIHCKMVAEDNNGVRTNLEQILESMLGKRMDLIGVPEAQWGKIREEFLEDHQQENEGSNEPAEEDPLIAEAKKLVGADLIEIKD
T7: itself; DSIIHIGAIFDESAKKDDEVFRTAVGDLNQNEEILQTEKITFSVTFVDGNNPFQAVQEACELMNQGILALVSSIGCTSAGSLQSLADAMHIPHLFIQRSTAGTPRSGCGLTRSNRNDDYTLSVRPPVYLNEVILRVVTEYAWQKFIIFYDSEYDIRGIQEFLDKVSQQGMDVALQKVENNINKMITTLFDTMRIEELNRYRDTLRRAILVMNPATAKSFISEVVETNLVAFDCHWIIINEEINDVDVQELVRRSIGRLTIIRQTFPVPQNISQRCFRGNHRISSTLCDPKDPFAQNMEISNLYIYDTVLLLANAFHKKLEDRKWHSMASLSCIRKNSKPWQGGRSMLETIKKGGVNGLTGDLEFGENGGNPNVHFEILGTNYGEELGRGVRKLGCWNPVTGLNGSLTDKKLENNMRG
T8: itself; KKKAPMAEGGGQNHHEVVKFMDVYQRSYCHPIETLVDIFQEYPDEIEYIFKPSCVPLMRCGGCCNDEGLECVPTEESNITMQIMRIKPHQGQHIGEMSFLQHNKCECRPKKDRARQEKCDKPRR
B1: BRI1 814-1196 (Arabidopsis thaliana, UniProt O22476); chain GREMRKRRRKKEAELEMYAEGHGNSGDRTANNTNWKLTGVKEALSINLAAFEKPLRKLTFADLLQATNGFHNDSLIGSGGFGDVYKAILKDGSAVAIKKLIHVSGQGDREFMAEMETIGKIKHRNLVPLLGYCKVGDERLLVYEFMKYGSLEDVLHDPKKAGVKLNWSTRRKIAIGSARGLAFLHHNCSPHIIHRDMKSSNVLLDENLEARVSDFGMARLMSAMDTHLSVSTLAGTPGYVPPEYYQSFRCSTKGDVYSYGVVLLELLTGKRPTDSPDFGDNNLVGWVKQHAKLRISDVFDPELMKEDPALEIELLQHLKVAVACLDDRAWRRPTMVQVMAMFKEIQAGSGIDSQSTIRSIEDGGFSTIEMVDMSIKEVPEGKL
B2: TOPBP1 BRCT5 641-746 (UniProt Q92547); GST fusion; chain TGMTPLEDCVISFSQCAGAEKESLTFLANLLGASVQEYFVRKSNAKKGMFASTHLILKERGGSKYEAAKKWNLPAVTIAWLLETARTGKRADESHFLIENSTKEER
B3: UGT1A9 (Homo sapiens, UniProt O60656); chain GKLLVVPMDGSHWFTMRSVVEKLILRGHEVVVVMPEVSWQLGRSLNCTVKTYSTSYTLEDLDREFKAFAHAQWKAQVRSIYSLLMGSYNDIFDLFFSNCRSLFKDKKLVEYLKESSFDAVFLDPFDNCGLIVAKYFSLPSVVFARGILCHYLEEGAQCPAPLSYVPRILLGFSDAMTFKERVRNHIMHLEEHLLCHRFFKNALEIASEILQTPVTEYDLYSHTSIWLLRTDFVLDYPKPVMPNMIFIGGINCHQGKPLPMEFEAYINASGEHGIVVFSLGSMVSEIPEKKAMAIADALGKIPQTVLWRYTGTRPSNLANNTILVKWLPQNDLLGHPMTRAFITHAGSHGVYESICNGVPMVMMPLFGDQMDNAKRMETKGAGVTLNVLEMTSEDLENALKAVINDKSYKENIMRLSSLHKDRPVEPLDLAVFWVEFVMRHKGAPHLRPAAHDLTWYQYHSLDVIGFLLAVVLTVAFITFKCCAYGYRKCLGKKGRVKKAHKSKTH
B4: MCU residues 72-189 (Homo sapiens); chain SDDVTVVYQNGLPVISVRLPSRRERCQFTLKPISDSVGVFLRQLQEEDRGIDRVAIYSPDGVRVAASTGIDLLLLDDFKLVINDLTYHVRPPKRDLLSHENAATLNDVKTLVQQLYTT
B5: APLP1 E2 domain (Homo sapiens); chain TPTPRPTDGVDIYFGMPGEISEHEGFLRAKMDLEERRMRQINEVMREWAMADNQSKNLPKADRQALNEHFQSILQTLEEQVSGERQRLVETHATRVIALINDQRRAALEGFLAALQADPPQAERVLLALRRYLRAEQKEQRHTLRHYQHVAAVDPEKAQQMRFQVHTHLQVIEERVNQSLGLLDQNPHLAQELRPQIQELLHSEHLGPSELEAPA
B6: SMURF1 WW1-WW2 pair (Homo sapiens); chain SPELPEGYEQRTTVQGQVYFLHTQTGVSTWHDPRIPRDLNSVNCDELGPLPPGWEVRSTVSGRIYFVDHNNRTTQFTDPRLH
B7: dnaX τ domain IIIa (Bacillus subtilis); chain LMKKIQQLEQEVERLKTTGIKAAAESPKKEAPRVPKGGKSNYKAPVGRIHEILKEATRPDLDLLRNSWGKLLAHLKQQNKVSHAALLNDSEPVAAGSAAFVLKFKYEIHCKMVAEDNNGVRTNLEQILESMLGKRMDLIGVPEAQWGKIREEFLEDHQQENEGSNEPAEEDPLIAEAKKLVGADLIEIKD
B8: Grid2 N-terminal domain (Rattus norvegicus); chain DSIIHIGAIFDESAKKDDEVFRTAVGDLNQNEEILQTEKITFSVTFVDGNNPFQAVQEACELMNQGILALVSSIGCTSAGSLQSLADAMHIPHLFIQRSTAGTPRSGCGLTRSNRNDDYTLSVRPPVYLNEVILRVVTEYAWQKFIIFYDSEYDIRGIQEFLDKVSQQGMDVALQKVENNINKMITTLFDTMRIEELNRYRDTLRRAILVMNPATAKSFISEVVETNLVAFDCHWIIINEEINDVDVQELVRRSIGRLTIIRQTFPVPQNISQRCFRGNHRISSTLCDPKDPFAQNMEISNLYIYDTVLLLANAFHKKLEDRKWHSMASLSCIRKNSKPWQGGRSMLETIKKGGVNGLTGDLEFGENGGNPNVHFEILGTNYGEELGRGVRKLGCWNPVTGLNGSLTDKKLENNMRG
B9: VEGFA VEGF121 N-terminal KKK addition (Homo sapiens); chain KKKAPMAEGGGQNHHEVVKFMDVYQRSYCHPIETLVDIFQEYPDEIEYIFKPSCVPLMRCGGCCNDEGLECVPTEESNITMQIMRIKPHQGQHIGEMSFLQHNKCECRPKKDRARQEKCDKPRR

CRYGS N15D/Q121E/N144D/N54D/Q93E/Q64E/Q17E (Homo sapiens)  subunits per oligomer (itself; SEC-MALS): 2
B1 (BRI1 814-1196)  subunits per oligomer (T1, itself; SEC; pH 7.5, NaCl 100 mM): 2
Dnm1 fragment G397D (Rattus norvegicus)  subunits per oligomer (itself; SEC, sucrose gradient centrifugation; non-assembly conditions): 2
BCL11A extended ZnF1  subunits per oligomer (itself; AUC): 2
CGGKRKKQKRKRAKQLRKRLQALEWQLAQIRKELQAAEKEEAQIEE (APH3 designed coiled coil)  subunits per oligomer (T2, itself; AUC; designed binder; pH 7.91, 20 °C, NaCl 150 mM, with: TCEP 1 mM): 2
B2 (TOPBP1 BRCT5 641-746)  subunits per oligomer (itself; SEC): 2
CUL4A/RBX1/DDB1/DCAF1/NEDD8 full length, neddylated CUL4A (Homo sapiens)  subunits per oligomer (itself; cryo-EM): 2
B3 (UGT1A9)  Km (O=C(c1ccc(OCCN2CCCCC2)cc1)c1c(-c2ccc(O)cc2)sc2cc(O)ccc12; steady-state kinetics; pH 7.4, 37 °C): 1.93 µM
B4 (MCU residues 72-189)  subunits per oligomer (T3, itself; AUC; without Ca2+, global fit): 2
D1 chaperone full length, anaerobic (Sterolibacterium denitrificans)  subunits per oligomer (itself; SEC; denaturing, without DTT): 2
NFU1 (human, UniProt Q9UMS0)  subunits per oligomer (itself; AUC; 72 µM, pH 7.5): 4
cas-2 fragment V411A (Caenorhabditis elegans)  subunits per oligomer (itself; SEC): 2
gerBC fragment (Bacillus subtilis)  subunits per oligomer (itself; crystal structure): 2
PKM (Homo sapiens, UniProt P14618)  subunits per oligomer (itself; blue native PAGE; lysate): 2
PsaA/PsaB/PsaC/PsaD/PsaE/PsaF/PsaK/PsaL trimer (Thermosynechococcus elongatus)  subunits per oligomer (itself; AUC; 20 °C): 3
B5 (APLP1 E2 domain)  subunits per oligomer (T4, itself; AUC; pH 7.5, without heparin): 2
SELL/IGHG1 extracellular domain/Fc fusion (Mus musculus/Homo sapiens)  subunits per oligomer (itself; SDS-PAGE reduced and non-reduced): 2
B6 (SMURF1 WW1-WW2 pair)  subunits per oligomer (T5, itself; NMR): 2
cas-2 fragment V367A (Caenorhabditis elegans)  subunits per oligomer (itself; SEC): 2
MMP9 proMMP-9, trimer E402A (Homo sapiens)  subunits per oligomer (itself; non-reducing SDS-PAGE): 2.5
cas-2 fragment V367A/I373A (Caenorhabditis elegans)  subunits per oligomer (itself; SEC): 2
US6/Ighm gD (Herpes simplex virus-2/Mus musculus)  subunits per oligomer (itself; SEC): 18.6
CD3E (Homo sapiens, UniProt P07766)  subunits per oligomer (itself; two-colour coincidence detection; PM1): 2
proNGF residues -121 to 118 three furin sites to alanine (Mus musculus)  subunits per oligomer (itself; crystal structure): 2
B7 (dnaX τ domain IIIa)  subunits per oligomer (T6, itself; SEC): 3
cstB PDO-RHD domains (Staphylococcus aureus)  subunits per oligomer (itself; SEC): 4
HBA1/HBB tetramer (Homo sapiens)  subunits per oligomer (itself; native MS): 4
nitrile hydratase (Monosiga brevicollis)  subunits per oligomer (itself; SEC): 2
SHARPIN fragment (Homo sapiens)  subunits per oligomer (itself; AUC; pH 7.4, 293 K, NaCl 150 mM): 2
PutA DNA-binding domain (Pseudomonas putida)  subunits per oligomer (itself; AUC; pH 6.2, 20 °C): 2
THBS1 residues 238-end (Homo sapiens)  subunits per oligomer (itself; non-reducing SDS-PAGE immunoblot; cell supernatant): 3
Pkm (Mus musculus, UniProt P52480)  subunits per oligomer (itself; native PAGE; Sirt2-/- mammary tumor cells; not purified): 4
B8 (Grid2 N-terminal domain)  subunits per oligomer (T7, itself; SEC): 2
B9  subunits per oligomer (T8, itself; mass spectrometry): 2
protein 85-329 (Methylococcus capsulatus, UniProt Q7WZ30)  subunits per oligomer (itself; AUC; pH 8.0, 12 °C, NaCl 0.5 M): 2

For quick reference, copied from above:
nitrile hydratase (Monosiga brevicollis)  subunits per oligomer (itself; SEC): 2
CUL4A/RBX1/DDB1/DCAF1/NEDD8 full length, neddylated CUL4A (Homo sapiens)  subunits per oligomer (itself; cryo-EM): 2
HBA1/HBB tetramer (Homo sapiens)  subunits per oligomer (itself; native MS): 4
PKM (Homo sapiens, UniProt P14618)  subunits per oligomer (itself; blue native PAGE; lysate): 2
